Measurements pooled from the literature.
Values joined by “and” are separate records of one study, mostly repeats; a detail may differ.
Target: Activated CDC42 kinase 1 (TNK2, Homo sapiens, UniProt Q07912)

| Structure (SMILES) | assay | system | conditions | scale | endpoint | value |
| --- | --- | --- | --- | --- | --- | --- |
| COCC12C(=O)NC3C4(C(OC)CC1O)C1CC5(O)C(OC)C(O)C(OC(C)=O)(C1C5OC(=O)c1ccccc1)C3(O)C(OC)C24 (stereo not shown) | kinase activity, inhibitor, ProQinase kinase profiling |  | 25 µM | reference: control | remaining activity | 117% and 119% |
| COc1cc(Nc2nccc(-c3cnn4nc(OC)ccc34)n2)cc(C(F)(F)F)c1 | binding, competition with immobilised ligand |  | 1 µM |  | remaining binding | 88% |
| CCN1CCN(Cc2ccc(NC(=O)c3ccc(C)c(NC(=O)c4cncc(-c5cccs5)c4)c3)cc2C(F)(F)F)CC1 | binding, competition with immobilised ligand |  | 1 µM |  | remaining binding | 30% |
| O=C(Cc1ccc(OCc2ccccc2)cc1)NC1(C(=O)O)CCN(C(=O)c2ccc(-c3cccc(Cl)c3)cc2)CC1 | enzyme activity, inhibitor |  | 10 µM |  | activity vs control | 95% |
| O=C=[N][Ru-4]123([n]4c5ccc(O)cc5c5c6c(c7cc(F)c[n+]1c7c54)C(=O)NC6=O)[S+]1CC[S+]2CC[S+]3CC1 (stereo not shown) | enzyme activity |  | 100 nM, human enzyme, with: 10 µM ATP | reference: untreated | remaining activity | 96% |
| Cc1ccc(C(=O)Nc2ccc(CN3CCN(C)CC3)c(C(F)(F)F)c2)cc1C#Cc1cnc2cccnn12 | target engagement, NanoBRET | human cells |  |  | Hill slope | 1.77 |
| CCn1cc(C(=O)O)c(=O)c2c(N)c(F)c(NC3CCCCC3)cc21 | kinase activity |  | 0.1 µM, with: ATP at Km |  | inhibition | 4.9% |
| N[C@H]1CC[C@H](Nc2nccc(-c3cccnc3Oc3ccc(NC(=O)NC4CC4)c4ccccc34)n2)CC1 | kinobead competition pulldown | HEK293/HCT116 lysate mixture | 10 µM, 1 h, 4 °C | lower = stronger competition | log2 LFQ intensity | 24.3 and 24.1 and 23.9 |
| O=C(Nc1ccc(Oc2ncnc3[nH]cc(-c4ccccc4)c23)c(F)c1)c1c2n(n(-c3cc(F)ccc3F)c1=O)CCCC2 | enzyme activity, inhibitor |  | 0.5 µM |  | inhibition | 8% |
| C=CC(=O)Nc1cccc(-c2cnc3[nH]cc(C(=O)NC(C)(C)C)c3n2)c1 | kinase activity |  | 0.1 µM |  | inhibition | 2% and 4% |
| CNC(=O)C[C@H](Cc1ccc(C#N)cc1)NC(=O)c1cc(-c2ccc(CN[C@H](C)c3ccc(C)cc3)o2)ccc1Cl | enzyme activity, inhibitor |  | 1 µM |  | activity vs control | 106% |
| COC(=O)[C@@]1(C)C=C(C(=O)Nc2cccc(C(=O)Nc3ccc(Nc4nccc(-c5cccnc5)n4)c(C)c3)c2)C(=O)CC1 | binding, competition with immobilised ligand |  | 1 µM |  | remaining binding | 95% |
| C=CC(=O)N1Cc2nc(-c3cc(-c4cc(Cl)cnc4Cl)c(F)cc3F)n(-c3ccncn3)c2C1 | cell-free assay, inhibitor |  | 1 µM |  | inhibition | 0.7% |
| COc1ccc(NC(=O)Nc2ccc3c(c2)C(=O)N(C(C)CO)CC(C)C(CN(C)Cc2ccc4c(c2)OCO4)O3)cc1 (stereo not shown) | kinase activity, KinaseProfiler |  | 0.03 µM, species human | reference: control | remaining activity | 99% |
| Cc1cccc(O[C@H]2CCC[C@@H](C(C)CNCc3ccncc3)C2)c1 (relative stereo) | enzyme activity, inhibitor |  | 1 µM |  | inhibition | 2% |
| CC(C)=CC1OC(C)(C)C2C=C3C(=O)C(Cl)=CC(O)C3C3C(O)C4OC4C(=O)C132 (stereo not shown) | cell-free assay, competition with immobilised ligand |  | 10 µM |  | remaining binding | 70% |
| Nc1ncc(-c2cc(-c3cnn(CC(F)(F)F)c3)ncc2F)nc1C(=O)NC1CNCC(F)C1 (stereo not shown) | enzyme activity |  | 1 µM | reference: DMSO control | remaining activity | 90% |
| COc1c(Cl)cccc1Nc1c(-c2ccncc2C#C[C@@]2(C)CCCN2C(=O)/C=C/CN(C)C)[nH]c2c1C(=O)NCC2 | binding, competition with immobilised ligand |  | 3 µM |  | remaining binding | 100% |
| NC(=O)C[C@H]1CCc2sc3ncnc(O[C@H]4CC[C@H](N5CCOCC5)CC4)c3c21 | enzyme activity, inhibitor |  | 10 µM |  | inhibition | 11% |

For quick reference, copied from above:
| Structure (SMILES) | assay | system | conditions | scale | endpoint | value |
| --- | --- | --- | --- | --- | --- | --- |
| CC(C)=CC1OC(C)(C)C2C=C3C(=O)C(Cl)=CC(O)C3C3C(O)C4OC4C(=O)C132 (stereo not shown) | cell-free assay, competition with immobilised ligand |  | 10 µM |  | remaining binding | 70% |
